Measured values collected from several papers.
Every numbered part comes from another study and shows a few of its results, in no order. Positions count from the first letter of the parent shown.

Sample 1 — technique: RNAcompete; form: RNA; sample: in vitro; tested at: 20 nM; setting: 7-mer, probes averaged, single round; relative to: mean of 7-mers; reading: higher = stronger binding
Target: PABPC1L2, full length, GST fusion (mouse, UniProt A0ABA7IW68)
Residues (chain): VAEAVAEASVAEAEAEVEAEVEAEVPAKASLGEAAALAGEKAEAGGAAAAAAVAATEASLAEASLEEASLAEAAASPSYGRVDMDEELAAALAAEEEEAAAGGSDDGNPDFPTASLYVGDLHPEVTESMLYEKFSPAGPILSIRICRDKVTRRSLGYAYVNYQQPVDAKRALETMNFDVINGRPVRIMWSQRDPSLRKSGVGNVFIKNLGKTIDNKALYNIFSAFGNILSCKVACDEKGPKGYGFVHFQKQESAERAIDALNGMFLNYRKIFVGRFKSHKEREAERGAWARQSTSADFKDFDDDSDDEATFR
| Sequence | 7-mer Z-score |
| --- | --- |
| GGCAGCC | -0.101 |
| CCAUAUU | -0.318 |
| AGCUAUU | -0.119 |
| AAUAACU | 0.218 |
| GGGCCAC | -0.0645 |
| CCGUUCC | -0.36 |
| UGGGCUG | 0.153 |
| UGUCUCC | -0.441 |

Sample 2 — effect on: peptide-MHC binding; form: peptide; tested at: concentration not given
Target: HLA class I histocompatibility antigen, C alpha chain, allele C*04:01 (Homo sapiens, UniProt P10321)
| Sequence | binding |
| --- | --- |
| FTSSFYNYV | inactive |
| RLYPFGSYY | inactive |
| IVDCLTEMYY | inactive |
| LYDAVAALF | active |
| AYPKWKFFL | inactive |
| YTFTSLFSL | inactive |
| LMMSSPPPI | inactive |
| TRDPNLAYI | inactive |
| AVEDFLAFF | inactive |
| FSFGGFTFK | inactive |
| FMFDYIPPV | inactive |
| NTDSSLQSM | inactive |
| SHDLAPQFL | inactive |
| RLKFSLSYK | inactive |
| FQPQNGQYI | inactive |
| MTMITPPTF | inactive |

Sample 3 — target: CCND1, cyclin fold, Cln2 fusion (human); technique: yeast growth competition, sequencing; sample: yeast; setting: weak parent motif; relative to: not given; reading: higher = stronger binding; starting sequence: viral docking peptide; TSVRRALFTGGSD
| Substitution | normalised enrichment score |
| --- | --- |
| A6M | -0.0845 |
| S2Q | 0.194 |
| G11S | 0.452 |
| S2W | 0.153 |
| R5K | 0.225 |
| T9R | 0.78 |
| G10F | 0.463 |
| L7K | 0.00901 |
| A6V | 0.607 |
| A6R | 0.44 |
| L7Q | -0.058 |
| G11E | 0.845 |
| R4Q | 0.42 |
| G11D | 0.83 |
| R4P | 0.386 |
| T9A | 0.0796 |

Other studies, line by line
| Substance | partner | technique | setting | measurement | result |
| --- | --- | --- | --- | --- | --- |
| Histone H2B type 1-C/E/F/G/I (Homo sapiens, UniProt P62807) | H2AC14 (Homo sapiens, UniProt Q99878) | cross-linking MS | hits only | interaction screen | cross-linked |

Excerpt of the above (sample 3):
| Substitution | normalised enrichment score |
| --- | --- |
| R4P | 0.386 |
| G11D | 0.83 |
| G11S | 0.452 |
| T9R | 0.78 |
| G11E | 0.845 |
